Experimental data from different studies.
Each numbered part is a random draw from the data of one study; scales do not carry over between parts. Values joined by “and” are separate records of one study, mostly repeats; a detail may differ.
UniProt P22607, sequence (whole entry, unmodified, looked up): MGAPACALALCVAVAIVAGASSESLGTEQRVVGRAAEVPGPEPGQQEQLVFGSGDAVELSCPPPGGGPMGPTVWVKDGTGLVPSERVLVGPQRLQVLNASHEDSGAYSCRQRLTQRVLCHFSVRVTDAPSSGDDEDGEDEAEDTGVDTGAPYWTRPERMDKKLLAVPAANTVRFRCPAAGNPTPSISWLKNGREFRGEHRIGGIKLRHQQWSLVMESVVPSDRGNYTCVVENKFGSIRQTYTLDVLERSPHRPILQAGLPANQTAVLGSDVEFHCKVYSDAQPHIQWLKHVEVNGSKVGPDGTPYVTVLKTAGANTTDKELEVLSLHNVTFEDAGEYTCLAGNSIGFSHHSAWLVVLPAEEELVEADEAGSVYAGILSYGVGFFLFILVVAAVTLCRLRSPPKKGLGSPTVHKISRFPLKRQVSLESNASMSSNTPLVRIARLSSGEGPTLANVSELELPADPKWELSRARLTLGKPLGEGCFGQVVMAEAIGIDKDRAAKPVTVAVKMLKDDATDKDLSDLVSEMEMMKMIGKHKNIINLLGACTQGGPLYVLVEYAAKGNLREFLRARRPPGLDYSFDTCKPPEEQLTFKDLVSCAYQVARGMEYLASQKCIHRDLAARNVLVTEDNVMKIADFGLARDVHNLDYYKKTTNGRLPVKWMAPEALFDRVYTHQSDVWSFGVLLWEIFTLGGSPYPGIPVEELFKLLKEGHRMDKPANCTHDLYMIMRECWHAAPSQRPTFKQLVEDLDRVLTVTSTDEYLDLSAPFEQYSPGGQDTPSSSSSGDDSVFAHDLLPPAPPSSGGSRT
UniProt Q9Y3S1, sequence (whole entry, looked up): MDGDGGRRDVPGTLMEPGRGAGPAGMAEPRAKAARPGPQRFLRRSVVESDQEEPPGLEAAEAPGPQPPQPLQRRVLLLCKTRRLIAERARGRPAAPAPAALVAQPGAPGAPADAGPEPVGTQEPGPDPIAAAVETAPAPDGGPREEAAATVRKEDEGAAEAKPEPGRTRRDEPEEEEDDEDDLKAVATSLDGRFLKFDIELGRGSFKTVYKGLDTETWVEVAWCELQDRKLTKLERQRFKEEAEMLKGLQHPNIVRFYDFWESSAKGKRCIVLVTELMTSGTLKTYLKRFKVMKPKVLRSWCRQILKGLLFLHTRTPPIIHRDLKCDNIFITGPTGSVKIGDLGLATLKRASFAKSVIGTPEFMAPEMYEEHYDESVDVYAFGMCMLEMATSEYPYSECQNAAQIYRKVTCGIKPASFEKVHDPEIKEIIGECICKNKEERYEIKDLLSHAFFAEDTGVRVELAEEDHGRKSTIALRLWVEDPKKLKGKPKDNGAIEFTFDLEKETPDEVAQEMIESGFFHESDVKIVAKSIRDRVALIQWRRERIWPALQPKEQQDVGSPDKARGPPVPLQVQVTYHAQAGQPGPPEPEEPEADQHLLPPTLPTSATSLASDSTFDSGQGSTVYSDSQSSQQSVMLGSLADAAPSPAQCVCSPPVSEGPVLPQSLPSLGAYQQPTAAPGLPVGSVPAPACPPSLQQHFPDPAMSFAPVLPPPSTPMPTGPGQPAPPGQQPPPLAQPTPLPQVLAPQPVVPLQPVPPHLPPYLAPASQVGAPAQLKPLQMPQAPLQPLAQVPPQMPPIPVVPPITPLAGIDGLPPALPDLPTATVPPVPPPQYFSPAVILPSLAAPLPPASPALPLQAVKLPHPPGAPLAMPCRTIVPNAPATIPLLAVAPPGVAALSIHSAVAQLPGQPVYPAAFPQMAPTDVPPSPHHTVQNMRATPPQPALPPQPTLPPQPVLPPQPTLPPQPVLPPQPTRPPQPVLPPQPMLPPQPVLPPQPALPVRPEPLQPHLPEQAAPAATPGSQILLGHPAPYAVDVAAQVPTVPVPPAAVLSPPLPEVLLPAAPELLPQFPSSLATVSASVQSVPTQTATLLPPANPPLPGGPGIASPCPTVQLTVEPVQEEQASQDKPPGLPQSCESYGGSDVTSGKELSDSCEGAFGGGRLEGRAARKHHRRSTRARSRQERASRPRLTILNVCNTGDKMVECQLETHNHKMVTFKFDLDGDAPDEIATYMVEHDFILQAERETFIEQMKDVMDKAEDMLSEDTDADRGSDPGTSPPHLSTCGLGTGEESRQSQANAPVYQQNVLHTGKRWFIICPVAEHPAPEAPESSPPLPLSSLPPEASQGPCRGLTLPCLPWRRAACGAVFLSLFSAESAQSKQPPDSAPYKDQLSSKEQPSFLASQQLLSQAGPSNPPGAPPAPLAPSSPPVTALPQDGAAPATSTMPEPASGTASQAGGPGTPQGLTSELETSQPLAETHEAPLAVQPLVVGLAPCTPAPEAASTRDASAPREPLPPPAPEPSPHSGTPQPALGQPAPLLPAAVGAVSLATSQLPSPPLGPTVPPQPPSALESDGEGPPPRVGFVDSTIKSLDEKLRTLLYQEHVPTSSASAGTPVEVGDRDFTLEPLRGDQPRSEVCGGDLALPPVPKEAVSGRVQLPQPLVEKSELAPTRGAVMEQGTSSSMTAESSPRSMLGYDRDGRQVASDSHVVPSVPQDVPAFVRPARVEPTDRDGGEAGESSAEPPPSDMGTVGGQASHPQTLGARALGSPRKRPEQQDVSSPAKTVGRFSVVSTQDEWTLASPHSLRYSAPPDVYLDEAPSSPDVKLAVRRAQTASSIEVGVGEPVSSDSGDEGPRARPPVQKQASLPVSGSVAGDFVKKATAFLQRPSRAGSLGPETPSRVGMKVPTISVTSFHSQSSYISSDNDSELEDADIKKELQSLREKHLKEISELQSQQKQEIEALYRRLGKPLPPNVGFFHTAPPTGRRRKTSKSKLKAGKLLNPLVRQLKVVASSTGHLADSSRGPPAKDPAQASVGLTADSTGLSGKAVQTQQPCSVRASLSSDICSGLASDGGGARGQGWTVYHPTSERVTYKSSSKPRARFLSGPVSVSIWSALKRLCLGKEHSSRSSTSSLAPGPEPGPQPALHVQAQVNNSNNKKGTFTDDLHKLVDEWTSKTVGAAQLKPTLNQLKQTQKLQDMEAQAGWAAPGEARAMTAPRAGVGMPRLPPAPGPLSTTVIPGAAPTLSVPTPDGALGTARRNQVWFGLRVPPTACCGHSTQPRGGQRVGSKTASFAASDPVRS
UniProt P54756, sequence (whole entry, looked up): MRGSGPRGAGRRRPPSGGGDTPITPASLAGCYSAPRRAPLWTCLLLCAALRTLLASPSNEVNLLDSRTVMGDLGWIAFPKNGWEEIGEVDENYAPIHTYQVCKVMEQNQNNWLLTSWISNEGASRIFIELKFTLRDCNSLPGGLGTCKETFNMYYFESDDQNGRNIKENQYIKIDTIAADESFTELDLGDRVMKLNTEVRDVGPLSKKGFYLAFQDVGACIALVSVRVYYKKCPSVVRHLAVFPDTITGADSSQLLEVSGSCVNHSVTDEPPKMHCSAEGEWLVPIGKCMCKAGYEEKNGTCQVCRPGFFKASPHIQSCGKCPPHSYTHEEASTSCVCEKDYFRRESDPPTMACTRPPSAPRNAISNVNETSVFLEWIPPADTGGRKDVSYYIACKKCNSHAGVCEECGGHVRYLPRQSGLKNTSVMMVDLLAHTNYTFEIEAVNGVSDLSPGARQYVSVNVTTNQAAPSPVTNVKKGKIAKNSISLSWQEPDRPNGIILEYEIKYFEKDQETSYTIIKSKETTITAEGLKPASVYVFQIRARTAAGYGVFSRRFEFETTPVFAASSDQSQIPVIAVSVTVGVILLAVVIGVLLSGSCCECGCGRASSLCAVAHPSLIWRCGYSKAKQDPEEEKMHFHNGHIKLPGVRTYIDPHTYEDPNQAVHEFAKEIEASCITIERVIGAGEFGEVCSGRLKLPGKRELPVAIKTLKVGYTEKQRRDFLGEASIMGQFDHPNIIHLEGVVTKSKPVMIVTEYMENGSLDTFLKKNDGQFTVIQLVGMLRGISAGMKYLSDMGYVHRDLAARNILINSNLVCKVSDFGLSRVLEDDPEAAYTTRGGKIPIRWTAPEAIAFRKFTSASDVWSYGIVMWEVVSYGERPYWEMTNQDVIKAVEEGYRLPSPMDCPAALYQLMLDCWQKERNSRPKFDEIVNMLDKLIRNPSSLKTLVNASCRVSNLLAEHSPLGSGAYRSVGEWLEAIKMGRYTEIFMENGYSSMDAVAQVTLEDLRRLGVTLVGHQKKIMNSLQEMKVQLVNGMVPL
UniProt P37173, sequence (whole entry, looked up): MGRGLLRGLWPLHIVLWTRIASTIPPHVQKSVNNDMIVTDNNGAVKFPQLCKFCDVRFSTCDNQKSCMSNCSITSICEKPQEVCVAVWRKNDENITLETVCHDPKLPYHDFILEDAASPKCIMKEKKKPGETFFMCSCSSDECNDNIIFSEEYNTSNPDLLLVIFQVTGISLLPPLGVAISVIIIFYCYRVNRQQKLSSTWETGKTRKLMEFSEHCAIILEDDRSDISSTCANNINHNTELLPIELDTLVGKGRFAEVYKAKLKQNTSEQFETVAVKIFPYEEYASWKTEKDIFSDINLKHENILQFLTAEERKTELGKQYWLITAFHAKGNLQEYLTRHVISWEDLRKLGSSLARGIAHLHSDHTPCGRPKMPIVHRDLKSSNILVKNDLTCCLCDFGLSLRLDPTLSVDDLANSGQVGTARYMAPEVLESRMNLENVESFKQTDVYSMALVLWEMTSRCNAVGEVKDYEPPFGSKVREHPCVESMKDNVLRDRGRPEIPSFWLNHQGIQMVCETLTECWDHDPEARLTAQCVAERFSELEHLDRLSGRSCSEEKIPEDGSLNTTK

Block 1
Compound: O=C1NC(=O)C(c2c[nH]c3ccccc23)=C1c1c[nH]c2ccccc12
Observed: enzyme activity
Mode: inhibitor
Tested at: 0.5 µM
Baseline: control
target	remaining activity [%]
Casein kinase II subunit alpha (CSNK2A1, Homo sapiens, UniProt P68400)	106
Protein kinase C delta type (PRKCD, Homo sapiens, UniProt Q05655)	55.5
Tyrosine-protein kinase BTK (BTK, Homo sapiens, UniProt Q06187)	98.2
Serine/threonine-protein kinase Chk1 (CHEK1, Homo sapiens, UniProt O14757)	93.1
Casein kinase I isoform alpha (CSNK1A1, Homo sapiens, UniProt P48729)	98.4
Leucine-rich repeat serine/threonine-protein kinase 2 (LRRK2, Homo sapiens, UniProt Q5S007)	77.5
Tyrosine-protein kinase Lyn (LYN, Homo sapiens, UniProt P07948)	104
RAC-gamma serine/threonine-protein kinase (AKT3, Homo sapiens, UniProt Q9Y243)	90
Mitogen-activated protein kinase kinase kinase kinase 2 (MAP4K2, Homo sapiens, UniProt Q12851)	84.9
Ephrin type-A receptor 5 (EPHA5, Homo sapiens, UniProt P54756)	95.3
Serine/threonine-protein kinase WNK2 (WNK2, Homo sapiens, UniProt Q9Y3S1)	92.7

Block 2
Structure (SMILES): O=C(O)c1cc(-c2ccc(C3CCNCC3)cc2)c2ccc(-c3ccc(C(F)(F)F)cc3)cc2c1
Observed: cell-free assay
Technique: competition with immobilised ligand
Tested at: 1 µM
target	remaining binding [%]
Serine/threonine-protein kinase pim-2 (PIM2, Homo sapiens, UniProt Q9P1W9)	100
TGF-beta receptor type-2 (TGFBR2, Homo sapiens, UniProt P37173)	100
Fibroblast growth factor receptor 3 (FGFR3, Homo sapiens, UniProt P22607, G697C)	100
Serine/threonine-protein kinase pim-3 (PIM3, Homo sapiens, UniProt Q86V86)	100
Proto-oncogene tyrosine-protein kinase ROS (ROS1, Homo sapiens, UniProt P08922)	100
Proto-oncogene tyrosine-protein kinase receptor Ret (RET, Homo sapiens, UniProt P07949, V804L)	88

Block 3
Organism: Plasmodium berghei
Cells: Huh-7
Strain: liver stage
Tested at: 10 µM
Time: 24 h
Baseline: control
Compound	parasite load [%]
CC(C)[N+]1(C)[C@@H]2CC[C@H]1C[C@@H](OC(=O)C(CO)c1ccccc1)C2 (some centres unmarked)	99.2
N=C(N)NCCN1CCCCCCC1	81.9
CCOC(=O)N1CCC(=C2c3ccc(Cl)cc3CCc3cccnc32)CC1	83.8
CN1CCC(=C2c3ccccc3C=Cc3ccccc32)CC1	68.4
CNCCC(Oc1ccc(C(F)(F)F)cc1)c1ccccc1 (centres unmarked)	64.6

Single results of other studies
SMILES	test	system	setting	quantity	value
COc1ccc(-c2c(Nc3ccccn3)[nH]c3c(C4=CCCCC4)c(-c4ccccc4)nn3c2=O)cc1	LC-MS/MS	human, plasma	oral, 50 mg once daily	apparent steady-state clearance CL/F	1510 mL/h and 1430 mL/h and 1550 mL/h

For quick reference, copied from above (block 3):
Compound	parasite load [%]
CN1CCC(=C2c3ccccc3C=Cc3ccccc32)CC1	68.4
CC(C)[N+]1(C)[C@@H]2CC[C@H]1C[C@@H](OC(=O)C(CO)c1ccccc1)C2 (some centres unmarked)	99.2
N=C(N)NCCN1CCCCCCC1	81.9
CCOC(=O)N1CCC(=C2c3ccc(Cl)cc3CCc3cccnc32)CC1	83.8
